Published values collected from several papers.
Compare with care: the assays were run in different laboratories.
CTSL: Procathepsin L (CTSL, Homo sapiens, UniProt P07711)
Chain of UniProt P07711 (whole entry, looked up): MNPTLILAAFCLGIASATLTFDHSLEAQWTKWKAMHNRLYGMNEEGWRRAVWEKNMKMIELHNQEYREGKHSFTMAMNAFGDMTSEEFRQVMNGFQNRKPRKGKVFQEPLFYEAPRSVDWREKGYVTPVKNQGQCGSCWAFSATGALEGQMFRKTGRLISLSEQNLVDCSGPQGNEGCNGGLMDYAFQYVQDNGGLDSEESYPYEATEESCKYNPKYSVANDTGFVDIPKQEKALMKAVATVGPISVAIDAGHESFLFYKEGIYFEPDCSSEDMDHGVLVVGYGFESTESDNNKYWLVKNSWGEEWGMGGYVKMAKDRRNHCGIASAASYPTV
DRD3: D(3) dopamine receptor (DRD3, Homo sapiens, UniProt P35462)
Chain of UniProt P35462 (whole entry, looked up): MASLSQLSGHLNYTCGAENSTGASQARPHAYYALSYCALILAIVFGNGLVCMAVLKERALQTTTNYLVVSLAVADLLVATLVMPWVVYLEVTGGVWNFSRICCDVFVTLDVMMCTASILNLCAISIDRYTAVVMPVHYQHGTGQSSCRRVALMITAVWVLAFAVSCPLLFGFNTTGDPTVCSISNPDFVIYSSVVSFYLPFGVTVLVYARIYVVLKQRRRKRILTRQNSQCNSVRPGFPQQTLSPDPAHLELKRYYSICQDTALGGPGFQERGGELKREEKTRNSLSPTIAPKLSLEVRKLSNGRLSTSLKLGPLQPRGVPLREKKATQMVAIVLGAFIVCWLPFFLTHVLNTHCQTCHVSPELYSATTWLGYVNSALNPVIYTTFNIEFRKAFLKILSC
Chain of UniProt P19784 (whole entry, looked up): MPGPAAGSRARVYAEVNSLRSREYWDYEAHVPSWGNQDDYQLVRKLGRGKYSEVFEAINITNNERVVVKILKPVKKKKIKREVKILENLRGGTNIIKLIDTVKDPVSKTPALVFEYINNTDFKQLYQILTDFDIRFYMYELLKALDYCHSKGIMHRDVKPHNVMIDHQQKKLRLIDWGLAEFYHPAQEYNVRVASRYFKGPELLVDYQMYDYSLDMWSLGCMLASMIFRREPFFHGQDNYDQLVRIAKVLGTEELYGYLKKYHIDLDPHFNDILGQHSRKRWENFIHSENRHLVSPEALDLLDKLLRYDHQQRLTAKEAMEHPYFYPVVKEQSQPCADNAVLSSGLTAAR
Chain of UniProt P10721 (whole entry, unmodified, looked up): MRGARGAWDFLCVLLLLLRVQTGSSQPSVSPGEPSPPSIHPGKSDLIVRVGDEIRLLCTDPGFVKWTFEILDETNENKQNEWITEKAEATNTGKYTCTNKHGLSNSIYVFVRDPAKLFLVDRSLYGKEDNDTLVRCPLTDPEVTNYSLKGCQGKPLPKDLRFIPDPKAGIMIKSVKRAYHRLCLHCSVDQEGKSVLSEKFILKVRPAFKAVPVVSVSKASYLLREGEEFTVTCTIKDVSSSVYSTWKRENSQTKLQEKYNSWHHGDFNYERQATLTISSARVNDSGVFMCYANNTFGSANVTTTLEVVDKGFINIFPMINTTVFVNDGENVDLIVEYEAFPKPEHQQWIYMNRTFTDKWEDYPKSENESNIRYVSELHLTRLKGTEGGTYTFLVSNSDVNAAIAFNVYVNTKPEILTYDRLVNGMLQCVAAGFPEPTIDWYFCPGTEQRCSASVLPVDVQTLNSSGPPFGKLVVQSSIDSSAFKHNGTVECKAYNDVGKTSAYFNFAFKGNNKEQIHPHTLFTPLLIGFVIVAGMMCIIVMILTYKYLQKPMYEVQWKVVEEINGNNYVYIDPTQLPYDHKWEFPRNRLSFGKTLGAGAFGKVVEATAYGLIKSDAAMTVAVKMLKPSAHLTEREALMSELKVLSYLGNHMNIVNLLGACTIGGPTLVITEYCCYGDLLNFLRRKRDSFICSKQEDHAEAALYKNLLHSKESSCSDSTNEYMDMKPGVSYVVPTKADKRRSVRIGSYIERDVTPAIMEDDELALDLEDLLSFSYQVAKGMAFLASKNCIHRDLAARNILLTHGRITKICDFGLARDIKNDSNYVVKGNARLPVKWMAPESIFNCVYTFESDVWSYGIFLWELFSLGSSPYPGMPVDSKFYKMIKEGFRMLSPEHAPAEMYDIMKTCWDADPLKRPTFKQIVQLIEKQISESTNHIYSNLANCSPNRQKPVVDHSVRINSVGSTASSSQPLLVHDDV
Chain of UniProt Q04912 (whole entry, looked up): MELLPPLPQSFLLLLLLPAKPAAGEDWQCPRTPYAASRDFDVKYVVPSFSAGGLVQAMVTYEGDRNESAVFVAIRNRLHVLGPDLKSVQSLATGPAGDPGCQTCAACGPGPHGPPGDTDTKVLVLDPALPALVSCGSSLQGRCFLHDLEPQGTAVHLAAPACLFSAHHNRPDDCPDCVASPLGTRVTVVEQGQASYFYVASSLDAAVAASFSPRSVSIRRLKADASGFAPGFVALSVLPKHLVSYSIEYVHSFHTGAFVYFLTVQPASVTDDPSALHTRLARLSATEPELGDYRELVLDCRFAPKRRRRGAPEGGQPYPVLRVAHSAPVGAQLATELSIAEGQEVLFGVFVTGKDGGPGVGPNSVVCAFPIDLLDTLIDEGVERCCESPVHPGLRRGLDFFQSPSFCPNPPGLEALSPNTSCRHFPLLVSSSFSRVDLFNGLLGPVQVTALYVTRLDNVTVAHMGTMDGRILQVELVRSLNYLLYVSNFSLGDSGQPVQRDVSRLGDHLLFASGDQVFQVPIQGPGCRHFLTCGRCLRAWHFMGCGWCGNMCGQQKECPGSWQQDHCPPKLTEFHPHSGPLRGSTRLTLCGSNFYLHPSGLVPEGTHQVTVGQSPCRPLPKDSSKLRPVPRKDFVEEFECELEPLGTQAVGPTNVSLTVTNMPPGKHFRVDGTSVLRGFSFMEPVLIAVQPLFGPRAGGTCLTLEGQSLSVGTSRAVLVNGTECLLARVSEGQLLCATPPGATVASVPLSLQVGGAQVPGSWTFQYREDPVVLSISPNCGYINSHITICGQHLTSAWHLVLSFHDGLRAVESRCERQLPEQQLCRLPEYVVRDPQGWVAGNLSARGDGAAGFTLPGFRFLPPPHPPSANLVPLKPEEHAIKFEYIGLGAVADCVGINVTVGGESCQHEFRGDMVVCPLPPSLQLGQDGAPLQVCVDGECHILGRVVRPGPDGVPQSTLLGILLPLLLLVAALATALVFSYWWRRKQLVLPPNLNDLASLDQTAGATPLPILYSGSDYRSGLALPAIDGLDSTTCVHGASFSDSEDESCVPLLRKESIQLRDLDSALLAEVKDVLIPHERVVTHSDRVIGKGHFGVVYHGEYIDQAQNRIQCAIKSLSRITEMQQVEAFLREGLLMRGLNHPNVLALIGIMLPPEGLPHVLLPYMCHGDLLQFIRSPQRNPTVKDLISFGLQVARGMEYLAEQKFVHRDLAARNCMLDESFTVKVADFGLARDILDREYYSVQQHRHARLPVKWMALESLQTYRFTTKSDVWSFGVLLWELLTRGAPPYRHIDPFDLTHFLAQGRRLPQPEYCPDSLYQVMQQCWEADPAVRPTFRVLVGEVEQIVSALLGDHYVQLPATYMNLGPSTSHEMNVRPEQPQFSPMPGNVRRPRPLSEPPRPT
Chain of UniProt Q8N5S9 (whole entry, looked up): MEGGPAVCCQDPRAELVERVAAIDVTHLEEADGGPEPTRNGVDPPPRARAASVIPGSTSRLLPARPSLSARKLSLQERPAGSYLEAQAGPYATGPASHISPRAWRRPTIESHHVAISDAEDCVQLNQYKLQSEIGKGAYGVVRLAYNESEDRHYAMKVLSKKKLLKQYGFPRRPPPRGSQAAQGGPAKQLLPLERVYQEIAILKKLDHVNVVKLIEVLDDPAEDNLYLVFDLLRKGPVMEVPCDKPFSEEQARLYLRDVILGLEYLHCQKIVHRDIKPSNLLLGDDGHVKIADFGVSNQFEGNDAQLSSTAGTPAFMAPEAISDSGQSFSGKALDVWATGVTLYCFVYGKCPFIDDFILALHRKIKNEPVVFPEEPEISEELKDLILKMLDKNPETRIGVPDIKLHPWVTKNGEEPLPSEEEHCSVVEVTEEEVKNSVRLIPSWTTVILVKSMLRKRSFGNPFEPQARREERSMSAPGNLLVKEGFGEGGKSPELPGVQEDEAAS
Chain of UniProt P61075 (whole entry, looked up): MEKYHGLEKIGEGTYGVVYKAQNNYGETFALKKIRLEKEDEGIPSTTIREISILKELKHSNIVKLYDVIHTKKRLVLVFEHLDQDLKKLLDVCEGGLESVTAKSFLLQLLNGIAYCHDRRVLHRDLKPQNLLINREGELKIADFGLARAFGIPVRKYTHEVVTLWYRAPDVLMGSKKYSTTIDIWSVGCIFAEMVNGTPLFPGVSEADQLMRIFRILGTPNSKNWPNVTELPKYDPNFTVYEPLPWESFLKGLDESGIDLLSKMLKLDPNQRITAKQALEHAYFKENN
Chain of UniProt Q9H8M2 (whole entry, unmodified, looked up): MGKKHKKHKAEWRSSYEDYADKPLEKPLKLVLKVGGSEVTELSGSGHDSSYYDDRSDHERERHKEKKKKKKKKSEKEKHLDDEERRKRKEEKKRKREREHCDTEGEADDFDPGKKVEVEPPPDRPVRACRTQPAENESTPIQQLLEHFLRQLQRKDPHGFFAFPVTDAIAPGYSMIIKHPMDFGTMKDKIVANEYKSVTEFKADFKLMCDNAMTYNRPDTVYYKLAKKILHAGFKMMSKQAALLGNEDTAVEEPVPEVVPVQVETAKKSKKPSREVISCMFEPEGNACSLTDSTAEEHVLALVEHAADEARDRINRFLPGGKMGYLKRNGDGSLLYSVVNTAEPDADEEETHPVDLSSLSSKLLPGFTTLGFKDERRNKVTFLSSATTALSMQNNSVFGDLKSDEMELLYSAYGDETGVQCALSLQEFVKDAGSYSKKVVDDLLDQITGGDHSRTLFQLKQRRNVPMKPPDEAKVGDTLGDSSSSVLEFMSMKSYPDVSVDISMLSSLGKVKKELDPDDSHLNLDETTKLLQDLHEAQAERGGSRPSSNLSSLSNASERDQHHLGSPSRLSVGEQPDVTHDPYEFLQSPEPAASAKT

SMILES | tested on | test | test system | setting | measurement | value
COc1cccc(-c2n[nH]c(SCc3ccccn3)n2)c1OC | – | – | male Sprague-Dawley rat, plasma | intravenous, 1 mg/kg, 4 h, single dose | concentration | 76.2 ng/mL
COc1cc(-c2cncc3c2CN(C)Cc2cc(N4CCNCC4)ccc2-3)cc(OC)c1OC | Tyrosine-protein kinase Lck, phosphorylated (LCK, Homo sapiens, UniProt P06239) | enzyme activity, inhibitor | – | 1 µM | remaining activity | 81%
Nc1ncnc2occ(-c3ccc(NC(=O)Nc4cc(C(F)(F)F)ccc4F)cc3)c12 | Tyrosine-protein kinase ABL1, phosphorylated (ABL1, Homo sapiens, UniProt P00519, F317I) | cell-free assay, inhibitor | – | 20 µM | remaining signal | 2.6%
COc1ccc(-c2cc(=S)ss2)cc1 | CTSL | enzyme activity, inhibitor | – | 100 µM | remaining activity | 103%
C=CC(=O)N1CCC(COCC(=O)N2CCN(c3nc(-c4cnc(N)nc4C(F)F)nc(N4CCOC[C@@H]4C)n3)CC2)CC1 | Mast/stem cell growth factor receptor Kit (KIT, Homo sapiens, UniProt P10721, V559D/V654A) | binding, competition with immobilised ligand | – | 1 µM | remaining binding | 98%
O=C1CC[C@H](N2Cc3cc(N4CCN(CC5CCN(c6ccc([C@@H]7c8ccc(O)cc8CC[C@@H]7c7ccccc7)cc6)CC5)CC4)ccc3C2=O)C(=O)N1 | – | – | female Sprague-Dawley rat, plasma | oral, 20 mg/kg, fasted | MRT(0-inf) | 8.96 h
Nc1ccn([C@@H]2O[C@H](CO)[C@@H](O)C2(F)F)c(=O)n1 | MCF7 | cell growth or viability, MTT | – | 0.3125 µg/mL, 24 h | viability | 90.4%
O=Cc1c[nH]c2ccccc12 | CTSL | enzyme activity, inhibitor | – | 100 µM | remaining activity | 129%
O=C1O[C@H]([C@@H](O)CO)C(O)=C1O | – | ABTS scavenging | – | 90 µg/mL | inhibition | 60.8%
O=C1CC(c2ccccc2)Oc2cc(O)cc(O)c21 (stereo not shown) | CTSL | enzyme activity, inhibitor | – | 100 µM | remaining activity | 60.2%
Cc1cc([C@@H](C)Nc2ccccc2C(=O)O)c2nc(N3CCC(F)(F)CC3)c(C#N)c(=O)n2c1 | Platelet-derived growth factor receptor beta (PDGFRB, Homo sapiens, UniProt P09619) | binding, competition with immobilised ligand | – | 1 µM | remaining binding | 92%
CSc1ccc(NS(=O)(=O)c2c(C)[nH]c(C)c2C(=O)N2CCC(F)(F)C2)cc1Cl | DRD3 | β-arrestin recruitment, agonist | – | 90 min | Emax | 93%
O=c1nc(N2CCN(CC3CCCCC3)CC2)sc2c([N+](=O)[O-])cc(C(F)(F)F)cc12 | – | – | CD-1 mouse, plasma | intravenous, 10 mg/kg, 24 h | concentration | 0.74 ng/mL
O=C1c2ccccc2-n2c1nc1ccccc1c2=O | CTSL | enzyme activity, inhibitor | – | 100 µM | remaining activity | 46.6%
CC[C@H](C)[C@H](NC(=O)[C@H](CCC(N)=O)NC(=O)[C@H](CC(C)C)NC(=O)[C@H](CCSC)NC(=O)[C@H](CCCCN)NC(=O)[C@H](CO)NC(=O)[C@H](CO)NC(=O)[C@H](CCSC)NC(=O)[C@H](CC(C)C)NC(=O)[C@H](CC(N)=O)NC(=O)[C@@H](NC(=O)[C@@H](NC(=O)[C@H](CO)NC(=O)[C@H](CC(C)C)NC(=O)[C@H](CS)NC(=O)[C@H](CCCNC(=N)N)NC(=O)[C@H](CC(=O)O)NC(=O)[C@H](Cc1c[nH]c2ccccc12)NC(=O)[C@H](Cc1ccccc1)NC(=O)[C@H](C)NC(=O)[C@H](CCC(=O)O)NC(=O)[C@@H](N)CCCCN)C(C)C)[C@@H](C)CC)C(=O)N[C@@H](CC(N)=O)C(=O)N[C@@H](C)C(=O)O | Glycogen synthase kinase-3 beta (GSK3B, Homo sapiens, UniProt P49841) | enzyme activity, inhibitor, radiometric | – | 1 µM, 20 min | remaining activity | 97%
O=c1c(O)c(-c2cc(O)c(O)c(O)c2)oc2cc(O)ccc12 | CTSL | enzyme activity, inhibitor | – | 100 µM | remaining activity | 108%
C1=C/COCc2cc(ccc2OCCN2CCCC2)Nc2nccc(n2)-c2cccc(c2)COC/1 | Macrophage-stimulating protein receptor (MST1R, Homo sapiens, UniProt Q04912) | binding | – | 0.1 µM | remaining binding | 100%
O=C(/C=C/c1ccc(O)cc1)CC(=O)/C=C/c1ccc(O)cc1 | CTSL | enzyme activity, inhibitor | – | 100 µM | remaining activity | 19.7%
CCCCC(=O)Nc1ccc(-c2ccc3ncn(CCC)c(=O)c3c2)cn1 | Casein kinase II subunit alpha' (CSNK2A2, Homo sapiens, UniProt P19784) | binding, competition with immobilised ligand | – | 0.5 µM | remaining binding | 100%
CN(C)c1ncc(F)c(-c2cnn3ncccc23)n1 | Cyclin-dependent kinase 2 homolog (CRK2, Plasmodium falciparum, UniProt P61075) | cell-free assay | – | 1 µM | remaining signal | 74%
NC/C(=C\F)COc1cccc(Cn2c(=S)[nH]c(=O)c3[nH]cnc32)c1 | Myeloperoxidase (MPO, Homo sapiens, UniProt P05164) | enzyme activity, inhibitor, fluorescence | – | 37 nM | inhibition | 73.9%
COCc1cc(OC)c(-c2cc(C(C)=O)n3ccccc23)cc1OC | Bromodomain-containing protein 9 (BRD9, Homo sapiens, UniProt Q9H8M2) | thermal stability, DSF | – | 200 µM | ΔTm | 9.4 °C
CNc1ncc2c(/C=C/C(=O)N3CCC(OC)CC3)nn(Cc3cccc(C(F)(F)F)c3)c2n1 | Calcium/calmodulin-dependent protein kinase kinase 1 (CAMKK1, Homo sapiens, UniProt Q8N5S9) | enzyme activity, inhibitor, radiometric | – | 1 µM | remaining activity | 107%
Cc1[nH]c(C)c(S(=O)(=O)Nc2ccc(Cl)cc2C(F)(F)F)c1C(=O)N1CCC(F)(F)C1 | DRD3 | β-arrestin recruitment, agonist | – | 90 min | Emax | 94%
CCCN(O)N=Nc1ccc(S(=O)(=O)Nc2onc(C)c2C)cc1 | – | ABTS scavenging | – | 180 µg/mL | inhibition | 48.4%

A few entries again:
SMILES | tested on | test | test system | setting | measurement | value
Cc1cc([C@@H](C)Nc2ccccc2C(=O)O)c2nc(N3CCC(F)(F)CC3)c(C#N)c(=O)n2c1 | Platelet-derived growth factor receptor beta (PDGFRB, Homo sapiens, UniProt P09619) | binding, competition with immobilised ligand | – | 1 µM | remaining binding | 92%
CSc1ccc(NS(=O)(=O)c2c(C)[nH]c(C)c2C(=O)N2CCC(F)(F)C2)cc1Cl | DRD3 | β-arrestin recruitment, agonist | – | 90 min | Emax | 93%
O=c1nc(N2CCN(CC3CCCCC3)CC2)sc2c([N+](=O)[O-])cc(C(F)(F)F)cc12 | – | – | CD-1 mouse, plasma | intravenous, 10 mg/kg, 24 h | concentration | 0.74 ng/mL
